Measurements gathered from unrelated publications.
Protocols differ between the studies behind these lines. Values joined by “and” are separate records of one study, mostly repeats; a detail may differ. ± marks the error that the study gave. In brackets after ≈: the same amount, converted by molar mass.

Compound | assay | system | conditions | scale | quantity | value
CCCCCCCCCCCCCCCC(=O)N[C@@H](CCC(=O)NCCCC[C@H](NC(=O)[C@H](CC(=O)O)NC(=O)[C@H](CO)NC(=O)[C@@H](NC(=O)[C@H](Cc1ccccc1)NC(=O)[C@@H](NC(=O)CNC(=O)[C@H](CCC(N)=O)NC(=O)[C@H](CO)NC(=O)[C@@H](N)Cc1c[nH]cn1)[C@@H](C)O)[C@@H](C)O)C(=O)N[C@@H](CO)C(=O)N[C@@H](CCC(=O)O)C(=O)N[C@@H](Cc1ccc(O)cc1)C(=O)N[C@@H](CC(C)C)C(=O)N[C@@H](CC(=O)O)C(=O)N[C@@H](CO)C(=O)N[C@@H](CCC(=O)O)C(=O)N[C@@H](CCCNC(=N)N)C(=O)N[C@@H](C)C(=O)N[C@@H](CCCNC(=N)N)C(=O)N[C@@H](CC(=O)O)C(=O)N[C@@H](Cc1ccccc1)C(=O)N[C@H](C(=O)N[C@@H](C)C(=O)N[C@@H](Cc1c[nH]c2ccccc12)C(=O)N[C@@H](CC(C)C)C(=O)N[C@@H](CCC(=O)O)C(=O)N[C@@H](C)C(=O)NCC(=O)NCC(=O)O)C(C)C)C(=O)O | intraperitoneal glucose tolerance test | diet-induced obese mouse | subcutaneous, 1 nmol/kg, 1 h before glucose, together with: glucose 1.5 g/kg intraperitoneal | – | glucose AUC | 877 mmol·min/L
COc1cc(Cn2ccc3cc(C(=O)NCC45CC6CC(CC(C6)C4)C5)ccc32)ccc1C(=O)NO | immunohistochemistry, refers to: amyloid-beta | 5xFAD mouse, brain | intraperitoneal, 10 mg/kg once daily, 2 months | reference: vehicle | total plaque number | decreased
O=S(=O)(c1ccccc1)N(CCc1nnc(S)o1)c1ccccc1 | – | rat | 100 mg/kg, 5 h, together with: carrageenan | – | paw edema inhibition | 40.1%
O=C1CCN(Cc2ccccc2)CC1C(C[N+](=O)[O-])c1ccccc1 (stereo not drawn) | – | Balb/c mice, acetic acid writhing | 50 mg/kg | – | inhibition of writhing | 48.7%
COc1c2c(cc3oc(COC4OC(CO)C(O)C(O)C4O)cc(=O)c13)OC(C(C)(C)O)C2 (stereo not drawn) | analgesic effect | Kunming mouse, female | oral, 4 mg/kg, 0 h, 55 °C, before dosing, 30 s cut-off | – | hot plate latency | 9.18 ± 1.34 s
CC/C=C\C/C=C\C/C=C\C/C=C\C/C=C\CCCCOC(CC)C(=O)O (stereo not drawn) | – | ob/ob mice | dose not given, 4 weeks | reference: control | plasma insulin change | -76%
CCCCCCCCCC(=O)OCc1cn(-c2ccc(Cl)cc2)nn1 | prothrombin time | human plasma | 10 µM | – | clotting time | 15.4 ± 0.7 s
CC(=O)c1cnc(N)nc1N1CC[C@H]1c1nn2ccc(Cl)c2c(=O)n1-c1ccccc1 | B cell activation, inhibitor, refers to: CD86 | Wistar rat, blood | oral, 3 mg/kg twice at 0 and 8 h, 24 h, together with: anti-IgD | – | inhibition | 90% and > 90%
C=C1C[C@@]23CC[C@H]4[C@@](C)(CCC[C@@]4(C)C(=O)O[C@@H]4O[C@H](CO)[C@@H](O)[C@H](O)[C@H]4O)[C@@H]2CC[C@]1(O[C@@H]1O[C@H](CO[C@H]2O[C@H](CO)[C@@H](O)[C@H](O)[C@H]2O)[C@@H](O)[C@H](O)[C@H]1O[C@@H]1O[C@H](CO)[C@@H](O)[C@H](O)[C@H]1O)C3 | – | C57BL/6N mouse, high-fat diet | dose not given, week 13, together with: 2 g/kg glucose ip | – | glucose tolerance | no effect
CCCC[C@@H]1NC(=O)[C@H](Cc2ccc(O)cc2)NC(=O)[C@@H]2CCCN2C(=O)[C@H](CC(=O)O)NC(=O)[C@H](C)NC(=O)[C@H](Cc2ccccc2)NC(=O)[C@@H]2CSCCC(=O)N3CN(CN(C3)C(=O)CCSC[C@@H](C(=O)N[C@@H](C)C(N)=O)NC1=O)C(=O)CCSC[C@H](NC(C)=O)C(=O)N[C@@H](CC(C)(C)C)C(=O)N1CCC[C@H]1C(=O)N[C@@H](CCC(=O)O)C(=O)N[C@H](CCCCNC(=O)CCc1cn(CCOCCOCCOCCN(CCOCCOCCOCCC(=O)N[C@H]3CSCCC(=O)N4CN5CN(C4)C(=O)CCSC[C@H](NC(=O)[C@@H](CC(=O)O)NC(=O)[C@H](Cc4cccc6ccccc46)NC(=O)[C@@H]4CCCN4C3=O)C(=O)N[C@@H](CCSC)C(=O)N[C@@H](CCCCNC(=N)N)C(=O)N[C@@H](CC(=O)O)C(=O)N[C@@H](Cc3c[nH]c4ccccc34)C(=O)N[C@@H](CO)C(=O)N[C@@H]([C@@H](C)O)C(=O)N3CCC[C@H]3C(=O)N3C[C@H](O)C[C@H]3C(=O)N[C@@H](Cc3c[nH]c4ccccc34)C(=O)N[C@H](C(N)=O)CSCCC5=O)CCOCCOCCOCCn3cc(CCC(=O)NCCCC[C@H]4NC(=O)[C@H](CCC(=O)O)NC(=O)[C@@H]5CCCN5C(=O)[C@H](CC(C)(C)C)NC(=O)[C@@H](NC(C)=O)CSCCC(=O)N5CN6CN(C5)C(=O)CCSC[C@H](NC(=O)[C@H](Cc5ccc(O)cc5)NC(=O)[C@@H]5CCCN5C4=O)C(=O)N[C@@H](Cc4ccccc4)C(=O)N[C@@H](C)C(=O)N[C@@H](CC(=O)O)C(=O)N4CCC[C@H]4C(=O)N[C@@H](Cc4ccc(O)cc4)C(=O)N[C@@H](CCCC)C(=O)N[C@H](C(=O)N[C@@H](C)C(N)=O)CSCCC6=O)nn3)nn1)C(=O)N1CCC[C@H]1C(=O)N[C@@H](Cc1ccc(O)cc1)C(=O)N2 | – | mouse, MC38-Nectin-4 syngeneic tumour | 1.5 to 5 mg/kg twice weekly | – | tumour-free mice | 80 to 100%
Cc1cc2c(cc1C1(c3ncc(C(=O)O)cn3)CC1)C(C)(C)CCC2(C)C | RNA sequencing, refers to: Nmb | rat, brain | dose not given, 24 h | reference: vehicle | log2 fold change | 0.2
COc1ccc2nc3ccc(OC)cc3c(SCCCN)c2c1 | – | MPC-11, BALB/c mouse myeloma allograft, femur | intraperitoneal, 50 mg/kg thrice weekly | reference: vehicle | trabecular bone volume fraction | increased
Cc1ccc(S(=O)(=O)N(CCc2nnc(S)o2)c2ccc(Cl)cc2)cc1 | – | rat | 75 mg/kg, 3 h, together with: carrageenan | – | paw edema inhibition | 79.8%
CCOC(=O)C(Cc1cccc(O)c1)OC(=O)C=Cc1ccc(O)c(O)c1C=Cc1ccc(O)c(O)c1 (stereo not drawn) | – | C57 wild-type mice, isoproterenol-induced myocardial ischemia, serum | oral, 10 mg/kg pretreatment for 7 days, together with: isoproterenol 3 mg/kg | reference: normal group | serum CK-MB level | 105 ± 13%
Nc1nc2cnc(C(=O)N3CCOC[C@@H]3c3ccc(C(F)(F)F)cc3)cc2c2c1COC2 | – | human, serum | oral, 800 mg once daily | – | time to SDMA decline | ≤ 1 weeks
CN1Cc2c(Cl)cc(Cl)cc2C(c2ccc(S(=O)(=O)NCCOCCOCCOCCNC(=O)C(O)C(O)C(=O)NCCOCCOCCOCCNS(=O)(=O)c3ccc(C4CN(C)Cc5c(Cl)cc(Cl)cc54)cc3)cc2)C1 (stereo not drawn) | – | Sprague Dawley rats | oral, 3 mg/kg, 16 h | – | fecal water content | 61 % by weight
CNc1oc(-c2cccc3ccccc23)nc1C#N | – | C57BL/6J mice, low-dose STZ diabetes | ip, 48 mg/kg daily | reference: non-STZ controls | plasma insulin | decreased
CC(C)(O)c1ncc([S@](N)(=O)=NC(=O)Nc2c3c(cc4c2CCC4)CCC3)s1 | IL-1β release | healthy humans, whole blood ex vivo | plasma concentration, together with: LPS | – | EC90 | 1.08 µg/mL (≈ 2.57 µM)
COc1ccc(C2CC(c3ccc(C)cc3)=Nc3ccccc3S2)cc1OC (stereo not drawn) | – | Wistar rat, STZ-induced diabetes | oral, 20 mg/kg once daily, day 1 | – | blood glucose | 381 ± 4.21 mg/dL
C=C1C(=O)OC2C1CCC1(C)OC13CC1OC1(C)C23 (single isomer, unassigned) | – | alveolar liver cancer PC-1, outbred white rat | intraperitoneal, maximum tolerated dose, daily, 5 days | – | tumour growth inhibition | 59 to 88%
CC[C@H]1[C@@H](O)[C@@H]2[C@H](CC[C@]3(C)[C@@H]([C@H](C)CCOS(=O)(=O)[O-])CC[C@@H]23)[C@@]2(C)CC[C@@H](O)C[C@@H]12.[Na+] | histology | ob/ob NASH mouse model, liver | oral, 3 mg/kg once daily, 8 weeks | direction not given | NAFLD activity score | 5.9 ± 0.2
Cc1ccc(N(O)/N=N/c2ccc(S(=O)(=O)Nc3nccs3)cc2)cc1 | paw oedema | rat, carrageenan oedema | oral, 100 mg/kg, 4 h after carrageenan | reference: vehicle | inhibition | 65.7%
C[C@H]1CN(C(=O)c2cn(-c3ccnc(N)n3)c3cc(C#CC4(O)CCCCC4)ccc23)CCN1 | – | B16-BL6, mice, lung metastasis model | intravenous, 25 mg/kg daily | – | mice with lung metastases | 44.2%
C=C(c1cc(F)c(C(=O)O)c(F)c1)c1cc2c(cc1C)C(C)(C)CCC2(C)C | RNA sequencing, refers to: Acot1 mRNA | rat, brain | dose not given, 24 h, single dose | reference: vehicle | log2 fold change | -0.02
O/N=C/c1cnn(-c2ccccc2)n1 | plasma recalcification time | human plasma | 1 µM | – | clotting time | 278 ± 8 s
CC(C)[C@H](NC(=O)CN)C(=O)N[C@@H](CCCCN)C(=O)NCC(=O)N[C@@H](CC(=O)O)C(=O)N[C@@H](CCCCN)C(=O)NCC(=O)N[C@@H](CC(N)=O)C(=O)N1CCC[C@H]1C(=O)NCC(=O)N[C@@H](Cc1c[nH]c2ccccc12)C(=O)N1CCC[C@H]1C(=O)NCC(=O)N[C@@H](C)C(=O)N1CCC[C@H]1C(=O)O | microchemotaxis chamber | K1735 M4 melanoma, mouse | 100 to 200 µg/mL filter coating, 6 h, peptide-coated filters | reference: BSA-coated control | maximal cell motility | 5 fold
CCCOC(=O)Cc1c(C)n(C(=O)c2ccc(Cl)cc2)c2ccc(OC)cc12 | hot plate test | BALB/c mice | 75 mg/kg, 60 min | – | latency of nociceptive response | 17.4 ± 1.02 s
C[C@H](CC(=O)C[C@@H](C)[C@H]1C[C@H](O)[C@@]2(C)C3=C(C(=O)C[C@]12C)[C@@]1(C)CCC(=O)C(C)(C)[C@@H]1C[C@@H]3O)C(=O)O | – | mouse, STZ-induced type 1 diabetes, liver | dose not given | – | hexokinase activity | 10.1 ± 0.63 U/mg tissue
COc1ccc(-n2cc(CO)nn2)cc1 | prothrombin time | human plasma | 10 µM | – | clotting time | 15.7 ± 2 s
COc1ccc2c(c1)c(CC(=O)OCC(=O)OC(C)(C)C)c(C)n2C(=O)c1ccc(Cl)cc1 | hot plate test | BALB/c mice | 100 mg/kg, 90 min | – | latency of nociceptive response | 16.9 ± 1.4 s

Repeated from above:
Compound | assay | system | conditions | scale | quantity | value
Cc1ccc(N(O)/N=N/c2ccc(S(=O)(=O)Nc3nccs3)cc2)cc1 | paw oedema | rat, carrageenan oedema | oral, 100 mg/kg, 4 h after carrageenan | reference: vehicle | inhibition | 65.7%
C[C@H]1CN(C(=O)c2cn(-c3ccnc(N)n3)c3cc(C#CC4(O)CCCCC4)ccc23)CCN1 | – | B16-BL6, mice, lung metastasis model | intravenous, 25 mg/kg daily | – | mice with lung metastases | 44.2%
C=C(c1cc(F)c(C(=O)O)c(F)c1)c1cc2c(cc1C)C(C)(C)CCC2(C)C | RNA sequencing, refers to: Acot1 mRNA | rat, brain | dose not given, 24 h, single dose | reference: vehicle | log2 fold change | -0.02
O/N=C/c1cnn(-c2ccccc2)n1 | plasma recalcification time | human plasma | 1 µM | – | clotting time | 278 ± 8 s
